Measured values from different studies.
A part holds a random share of what one study measured. Changes are numbered by the printed parent chain.

Sample 1 — technique: universal PBM; molecule type: double-stranded DNA, one strand shown; medium: in vitro; tested at: not given; reading: higher = stronger binding; quantity: E-score
Target: Sal-like protein 4, full length isoform B (SALL4, Homo sapiens, UniProt Q9UJQ4-2, residues 1-616)
Notes: 8-mer, flanks averaged, mean of replicates
GATGGGCA: -0.00132
CGAAGGAC: -0.176
ATCTCTCG: -0.0953
CATATTAG: 0.337
GAGCCATA: 0.0665
ACTAAGAG: -0.0612
AGAATCGA: -0.0761
ATCGGGGG: -0.197
CAAGTTCG: -0.151
GAAACCTA: -0.00039
ACTTTGGG: -0.111
AGGCTTAC: -0.056
CTTTCAGA: -0.051
AGGCAGCA: -0.01
ACCAAAGA: 0.145
CATCTAAA: 0.0974
TAGCCCGA: -0.237
CATTCTTC: 0.0953
ACTATTTA: 0.268
GAGCTAGC: -0.129
AGAACGCG: -0.207
TGATTGAA: 0.175
GATAAGGA: 0.108
GCTAATCA: 0.0888
CAGGGTCG: -0.351

Sample 2 — technique: RNA Bind-n-Seq; molecule type: RNA; medium: in vitro; tested at: not given; relative to: input RNA pool; reading: higher = stronger binding; quantity: bound/input enrichment
Target: RING finger protein unkempt homolog, zinc fingers 1-6, GST-SBP tag (UNK, Homo sapiens, UniProt Q9C0B0, residues 30-357)
Notes: RNA with constant flanks, human and mouse sites, ends assumed
All sequences stand within: GGGAGUUCUACAGUCCGACGAUC … CAACAGAGGAUUGAGCAUCA
Residues (chain): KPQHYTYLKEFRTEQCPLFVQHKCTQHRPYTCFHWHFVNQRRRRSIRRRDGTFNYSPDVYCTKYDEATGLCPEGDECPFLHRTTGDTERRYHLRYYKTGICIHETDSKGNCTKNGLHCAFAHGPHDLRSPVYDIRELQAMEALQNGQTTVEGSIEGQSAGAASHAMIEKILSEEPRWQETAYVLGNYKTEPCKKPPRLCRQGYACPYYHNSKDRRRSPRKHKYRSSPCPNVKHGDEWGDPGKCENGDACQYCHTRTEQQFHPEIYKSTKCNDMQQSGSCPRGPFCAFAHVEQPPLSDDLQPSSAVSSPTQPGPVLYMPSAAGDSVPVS
GACUAUCACUUUGUCAUUUCUAGAGAACAAAUGGAGAAAGAUAUCCAAGAGCACAAAUUUAUAGAAGCUGGCCAGUACAAUGACAAUUUAUACGGAACCAGUGUGCAAUCUGUGAGAUUU: 0.638 ratio
GGUAUUUCAUUCAUCUUUUGCUGUUUCCGAAAUAAUGAUCACCCAGAAAUCACGUAUCGGCUGCGAAAUGAUAGCAACUUUGCGCUUCAGACCAUGGAACCAGCAUUGCCCAUGCCCCCU: 0.146 ratio
AUUCAGGCACAACUGACUGGUUCACAGCACUCCUUACAUAGUUAUCUAUCAAAUUCAAGUGUAGUUAAUUUUCAGGAAACAACCAGGCAGUCAUCUUUAUCCUGUAGCCCAAUUGGAGAU: 5.74 ratio
GAAGAUUUCUAUUCAACAUUUCAGGUUUUUCAAGAAGAAUUUGGAGUAAUUAAAUCCUAUAACUUAAAACCAGGGGGUGAUAAGAUUCCAGUUACCAAUCAGAAUAGAAGAGAGUAUGUA: 0.707 ratio
AACAGCGGACUCCGAGACCAGCGGAUCUCGGCAAACCCUCUUUCUCGACCACCCACCUACCAUUCUUGGAACCAUGGCGGCAGUGGCGGCGGCCUCGGCUGAACUGCUCAUCAUCGGCUG: 0.0817 ratio
GAAACUAAACAUCACAGCAAGCUCUAUCUCUGAGCUAUAAUUUGUUUUUAAUGCAAAGACACUAGUUUGAUAAUAUAUACUGUAAUCCUGAAACAUUUGUGUUACUUACCUUUGGAGGUA: 0.421 ratio
AUGCAGUCUGUGAUUGAACUUGGAAGAGUGAUCAGAGACCGAAAAACUAUUCCCAUAAAGUAUCCUUUGAAAGAAAUUGUGGUUAUCCAUCAAGAUCCAGAAGCUCUUAAAGAUAUCAAG: 0.0489 ratio
UUUAGCUUCCUGGAGAGCCACAACAAGCUGGACAAAGACAACCUCUCCUACAUUGAGCACAUCUUUGAGAUAUCUCGCCGUCCUGACCUCCUCACUAUGGUGGUUGACUACAGAACCCGU: 0.137 ratio
AAAAAAUGCUUAAAUUGUCAAACUGUCAUUACUUCUUAUUAUAGUUGAAGGCAUUCUCCAGAUUCUUUUUAAAAGAUUUGUUCAUAUUUCUCUCUCUCUCUCUCUCUCUCUCUCUCUCUU: 1.02 ratio
CUUGCUACACUUGGCACCCCCCCGCCCCCACCACAACCCUGCCUCUCCAUCAUGAACCUGCCUUUCCUCCUCCCUCGCUCCUCCCACAACCUCAGCCCACCCAGCCGGUAUCCUCUGAGG: 1.32 ratio
UUUUUUCUGCCAAAAGGAGCCUACAUUUAUAAUGCACUUAUUGAAUUCAUUAGGAGCGAAUAUAGGAAAAGAGGAUUCCAGGAGGUAGUCACCCCAAACAUCUUCAACAGCCGACUCUGG: 0.573 ratio

Sample 3 — technique: protein binding microarray; molecule type: double-stranded DNA, one strand shown; medium: in vitro; tested at: not given; relative to: not given; reading: higher = stronger binding; quantity: E-score
Target: Histone acetyltransferase KAT6A, winged helix 2, GST fusion (KAT6A, Homo sapiens, UniProt Q92794, residues 85-181)
Notes: 8-mer, flanks averaged, mean of 2 arrays, mostly near background
Residues (chain): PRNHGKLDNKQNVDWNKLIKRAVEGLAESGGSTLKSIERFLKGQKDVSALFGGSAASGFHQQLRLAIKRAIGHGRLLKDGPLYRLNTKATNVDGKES
ATACGGAA: -0.0155
AGCTGACC: -0.0188
AAGAAGGA: -0.0612
TACTCATA: -0.253
ACCATAAA: 0.0364
AGATTATG: -0.145
AATTTTTC: 0.0418
CCGCAGCG: 0.203
ACTCCCAT: -0.132
ACTAGCGC: -0.00441
CAGCCTAC: 0.0295
ACACTGTG: -0.0244
GCAACAAA: 0.179
TGTGCAAA: -0.252
AAGAACCA: 0.0171
GTTTCGGA: 0.0828
ACCTTGTC: -0.0185
ACGAATCC: 0.0693
CGGAATAG: 0.075

Sample 4 — target: CCNB1, cyclin fold, Cln2 fusion (human); technique: yeast growth competition, sequencing; medium: yeast; notes: strong parent motif; relative to: not given; reading: higher = stronger binding; quantity: normalised enrichment score
Starting sequence: E2F1 docking peptide (human); PPVKRRLDFETDH; partner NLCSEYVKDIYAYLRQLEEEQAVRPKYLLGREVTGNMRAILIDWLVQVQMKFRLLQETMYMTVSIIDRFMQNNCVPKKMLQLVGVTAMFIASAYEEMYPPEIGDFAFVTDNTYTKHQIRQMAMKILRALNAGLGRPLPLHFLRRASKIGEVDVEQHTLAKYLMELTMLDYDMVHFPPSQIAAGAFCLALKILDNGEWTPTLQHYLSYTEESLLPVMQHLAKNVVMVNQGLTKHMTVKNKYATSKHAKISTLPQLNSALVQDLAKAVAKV
F9D: -0.261
P2M: 4.54
F9T: -0.0259
V3M: 1.76
D8Y: 4.82
T11D: 5.63
P2Q: 5.17
E10R: 3.5
E10F: 4.29
V3R: 0.387
V3H: 0.712
K4A: 4.61
P2N: 5.11
L7C: 0.616
V3G: 0.465
E10G: 5.23
F9S: 0.071
E10W: 3.61
E10H: 4.34
R6M: 3.91
L7Y: 0.192
R5W: 0.525
F9Y: 3
L7A: 0.342
D12V: 5.12

Sample 5 — technique: RNA Bind-n-Seq; molecule type: RNA; medium: in vitro; tested at: 365 nM; relative to: no-protein control; reading: higher = stronger binding; quantity: RBNS enrichment (R)
Target: RNA binding protein fox-1 homolog 2, RRM domain, GST-SBP tag (RBFOX2, Homo sapiens, UniProt O43251-10, residues 100-194)
Notes: natural RNA segment, single round, ends assumed
All sequences stand within: GGGAGUUCUACAGUCCGACGAUC … UGGAAUUCUCGGGUGCCAA
Construct (chain): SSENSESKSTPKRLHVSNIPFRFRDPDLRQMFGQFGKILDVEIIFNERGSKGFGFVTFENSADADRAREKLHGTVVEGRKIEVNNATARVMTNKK
GACCUGGACACUGGGCCUCAGCCCCUGGCCGUGUGGAAUCCAUGGGAUCCUCGGGACUCCCCAGACAGGCGUGUGUGAGUGUGUUCUGUCAUGCAGCCUCAGCCCAGGCU: 0.38
GGACGAGUGUGAUUUUUUGUUGAGUGCAUUACAUCUUCACAUGGGGGCGGGGAGGUCUUUUCCCUGCCCAUGUUUUUUUGUGCUUAUUAGAGGUGCAAACAGCGAGCGAU: 0.319
GUCUACUUUUUUAAGCAGCAAAGUGUUCUGAGGAGUUGGUGUGUGAUGCCAAAGAGCUCAACGGGGCCUCUCAUGGUGAGCGUGGAUAGAUACGUGAUGUCUGGUCAUGU: 0.311
AACUGCAGGGAAAAUUAUUUGCAUAACAAUUCCUCUACUAACAAUCAGCUCCUUCCUGGAGACUGCCCAGCUAAAGCAAUAUGCAUUUAAAUACAGUCUUCCAUUUGCAA: 0.339
UAGAAAAUAAAAUAAAGCUUUGUAGUAUACUUGUACUUAGUUUGGGGAAAAAUGAAAUUAUAAUGCAUUUGUAUUUCCAUUUCUUGCAAAUAAAUAUUUUUCUUAGUCAA: 0.618
GUAAAAGCCAUUUAAAAAAGUUAGCAAGAUUUUUUAUCGACUUCCCAACUGGGCUUCCAGCCUUGUUGAAUGAAAUCAUCUAUCUCUGAUUGGGCGCAACGAACUGCAUU: 0.429
UGUCGCCUGGCCCCACGUGUGGUGUUUUGUGUGUUCCUGCCUGGCCAAGGGAGGUGCCAAUGCUGGGCUUACCAUAGUCCAGGAAGAAUAUGAGGACUAGGGGCACACAA: 0.46
CUUCUCAGGACAAUGAAUCCUUCCUGUUUUUCUUUUUAUGCCACACAGUGCAUUGUUUUUCUACCUGCUUGUCUUAUUUUUAGAAUAAUUUAGAAAAACAACAAAGGCUG: 4.16
UUGUCAGCAGGAGCCGUGGUCCAGCCCAGCACCUGUGCUCUCGUAGCCGAGGCCAGCCGUGUUGGGAAGAGAGCCAUGCCAAGGGUCCAGGCUGCUGUAGUCCACCUGUG: 0.382
CUUUGUACAUUUUUAUAUUAAAAAAAAAAAAAGACUAUUAAGGGACUUCAGAAUGUUGUAGGCCUCAUUAGAGCUUGUUCUCCAAAAACCUGCUUGAAAAAGGCAACGUG: 0.406
AAAGUUAACUAUGUAAGAUAUUAUUUCUGAAACAAUUUAGCUAUAUCCACUAUGAUUAUAAACUGUGUCUCGACCUGUGUUAUUUACAUUAGCUGCUUAAAAAAGCAUUG: 0.3
CACACAUAGCCUAGAGCUCAGUUUUAGUUUAACAUUGUGAAAAUAUUAAAAGAAUCUUGUAACUUUAUUCUUUUUUUUCUCCUGCUGAAACAAAUUAAACCAAUCAUAUG: 0.636

Single results of other studies
PhoQ, residues 284 288 289 292 302 303 SCKMEA  fold induction (PhoP, residues 12 14 15 18 19 IQFRS (Escherichia coli, UniProt P23836); Sort-seq, measured: YFP reporter; E. coli; PhoQ-PhoP variant library, with: 10 µM Mg2+; relative to: high Mg2+ state, higher = stronger signaling): 24.4
